Published values collected from several papers.
Numbered parts are unrelated; each lists some results of a single study. Substitutions count along the parent as printed.

Set 1 — technique: RNA Bind-n-Seq; form: RNA; sample: in vitro; concentration: 365 nM; reference: no-protein control; reading: higher = stronger binding; measurement: RBNS enrichment (R)
Target: RNA binding protein fox-1 homolog 2, RRM domain, GST-SBP tag (RBFOX2, Homo sapiens, UniProt O43251-10, residues 100-194)
Setting: natural RNA segment, single round, ends assumed
Constant ends, left off below: GGGAGUUCUACAGUCCGACGAUC … UGGAAUUCUCGGGUGCCAA
Residues (chain): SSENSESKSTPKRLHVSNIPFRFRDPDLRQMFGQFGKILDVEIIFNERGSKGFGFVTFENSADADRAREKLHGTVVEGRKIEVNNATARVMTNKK
Sequence = UUUUAAUAAGCUAUUUCAAUUUGUUUGUUAUAUUAAGUUGACUUUAUCAAAUACACAAAGAUUUUUUUGCAUAUGUUUCCUUCGUUUAAAACCAGUUUCAUAAUUGGUUG; value = 0.518
Sequence = CAGGUGAGAAGCUCCAGGAACUACUGGCUACCUUGACAAGCUGGGUAAAUAGUUAUCAUUCUGGGUAACUGGUUGAAACUCUGACUUUUGGACAAGUAAUUCCUGGGGUU; value = 0.565
Sequence = AUUGCUUGACAUCAGGAGACUUGGGGGGGAUUGUAGCAGACGUCUGGGCUUUUCCCCACCCAGAGAAUAGCCCCCUUCGAUACACAUCAGCUGGAUUUUCAAAAGCUUCA; value = 1.41
Sequence = GGAUGGGAGGGCUCAUUUGUUGAUAAAUAGCACUAUUUUCCCACACCUCAGCCUCCUGUCCCCGUCCUGGUCUUCCCUACACAGUCUGGAGAGGGCUCUGAAAGGUCCAC; value = 0.348
Sequence = UUUCUGCAAGCAACUUUAAUGACUUUUUUUAUACCACAUGGUCUCCCAGUUUCUAGAUGAAUGCAACAUGAUGAUGGUGAUGAUGACGAUGAGUUUAAUCAUUGUUCAUU; value = 1.03
Sequence = AACCCCUUUAUUGCUGUCUGAGAAAGUGAAAGAUUGUGUAUUUCUAUUAAAACAUUUACAAUCAAAAUUCUAAUGACUGUGCUUAAAGAUAAUUUAGUCUAAUGGUUCUC; value = 0.412

Set 2 — technique: universal PBM; form: double-stranded DNA, one strand shown; sample: in vitro; concentration: not given; reading: higher = stronger binding; measurement: E-score
Target: Sal-like protein 4, full length isoform B (SALL4, Homo sapiens, UniProt Q9UJQ4-2, residues 1-616)
Setting: 8-mer, flanks averaged, mean of replicates
Construct (chain): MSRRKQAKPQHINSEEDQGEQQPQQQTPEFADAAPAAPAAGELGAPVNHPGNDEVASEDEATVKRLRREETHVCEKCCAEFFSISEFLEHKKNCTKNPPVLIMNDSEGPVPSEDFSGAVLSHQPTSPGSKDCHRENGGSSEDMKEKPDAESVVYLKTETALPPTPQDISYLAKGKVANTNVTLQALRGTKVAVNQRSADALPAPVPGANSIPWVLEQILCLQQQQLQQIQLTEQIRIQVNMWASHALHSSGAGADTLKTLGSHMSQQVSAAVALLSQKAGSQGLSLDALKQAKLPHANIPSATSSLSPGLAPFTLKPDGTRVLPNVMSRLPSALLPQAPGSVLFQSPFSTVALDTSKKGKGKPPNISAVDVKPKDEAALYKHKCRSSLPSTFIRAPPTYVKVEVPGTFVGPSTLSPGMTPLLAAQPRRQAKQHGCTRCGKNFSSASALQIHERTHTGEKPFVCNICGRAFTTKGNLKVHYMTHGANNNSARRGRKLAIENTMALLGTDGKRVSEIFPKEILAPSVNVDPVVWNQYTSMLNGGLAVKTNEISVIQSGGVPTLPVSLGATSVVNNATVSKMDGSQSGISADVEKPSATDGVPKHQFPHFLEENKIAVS
Sequence = CCGATGAG; value = -0.148
Sequence = ACTGGTCG; value = -0.25
Sequence = AAGCATAA; value = 0.238
Sequence = CGCGTATC; value = -0.0901

Mixed results — CCNE2: CCNE2, cyclin fold, Cln2 fusion (human)
P1: CDC6 docking peptide (human); TLKGRRLVFDNQL; partner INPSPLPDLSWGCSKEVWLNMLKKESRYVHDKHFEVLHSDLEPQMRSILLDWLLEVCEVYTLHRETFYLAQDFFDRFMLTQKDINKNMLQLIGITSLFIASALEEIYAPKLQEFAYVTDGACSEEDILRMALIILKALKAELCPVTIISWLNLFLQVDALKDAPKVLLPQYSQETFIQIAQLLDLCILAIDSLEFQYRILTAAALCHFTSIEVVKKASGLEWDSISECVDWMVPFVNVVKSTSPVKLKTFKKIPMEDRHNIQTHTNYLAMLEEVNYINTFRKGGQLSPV
Substance = P1 Q12M; target = CCNE2; test = yeast growth competition, sequencing; test system = yeast; setting = weak parent motif; how to read = reference: not given, higher = stronger binding; measurement = normalised enrichment score; value = 0.651
Substance = PhoQ, residues 284 288 289 292 302 303 AANNSF; target = PhoP, residues 12 14 15 18 19 LWHVM (Escherichia coli, UniProt P23836); test = Sort-seq, item: YFP reporter; test system = E. coli; setting = PhoQ-PhoP variant library, with: 10 µM Mg2+; how to read = reference: high Mg2+ state, higher = stronger signaling; measurement = fold induction; value = 13.2
Substance = P1 R5I; target = CCNE2; test = yeast growth competition, sequencing; test system = yeast; setting = weak parent motif; how to read = reference: not given, higher = stronger binding; measurement = normalised enrichment score; value = -0.218

Repeated from above (set 2):
Sequence = AAGCATAA; value = 0.238
